Measurements gathered from unrelated publications.
Each line is one published result; not all experiments were run side by side. ± marks the error that the study gave.
Sequence of UniProt O75151 (whole entry, looked up): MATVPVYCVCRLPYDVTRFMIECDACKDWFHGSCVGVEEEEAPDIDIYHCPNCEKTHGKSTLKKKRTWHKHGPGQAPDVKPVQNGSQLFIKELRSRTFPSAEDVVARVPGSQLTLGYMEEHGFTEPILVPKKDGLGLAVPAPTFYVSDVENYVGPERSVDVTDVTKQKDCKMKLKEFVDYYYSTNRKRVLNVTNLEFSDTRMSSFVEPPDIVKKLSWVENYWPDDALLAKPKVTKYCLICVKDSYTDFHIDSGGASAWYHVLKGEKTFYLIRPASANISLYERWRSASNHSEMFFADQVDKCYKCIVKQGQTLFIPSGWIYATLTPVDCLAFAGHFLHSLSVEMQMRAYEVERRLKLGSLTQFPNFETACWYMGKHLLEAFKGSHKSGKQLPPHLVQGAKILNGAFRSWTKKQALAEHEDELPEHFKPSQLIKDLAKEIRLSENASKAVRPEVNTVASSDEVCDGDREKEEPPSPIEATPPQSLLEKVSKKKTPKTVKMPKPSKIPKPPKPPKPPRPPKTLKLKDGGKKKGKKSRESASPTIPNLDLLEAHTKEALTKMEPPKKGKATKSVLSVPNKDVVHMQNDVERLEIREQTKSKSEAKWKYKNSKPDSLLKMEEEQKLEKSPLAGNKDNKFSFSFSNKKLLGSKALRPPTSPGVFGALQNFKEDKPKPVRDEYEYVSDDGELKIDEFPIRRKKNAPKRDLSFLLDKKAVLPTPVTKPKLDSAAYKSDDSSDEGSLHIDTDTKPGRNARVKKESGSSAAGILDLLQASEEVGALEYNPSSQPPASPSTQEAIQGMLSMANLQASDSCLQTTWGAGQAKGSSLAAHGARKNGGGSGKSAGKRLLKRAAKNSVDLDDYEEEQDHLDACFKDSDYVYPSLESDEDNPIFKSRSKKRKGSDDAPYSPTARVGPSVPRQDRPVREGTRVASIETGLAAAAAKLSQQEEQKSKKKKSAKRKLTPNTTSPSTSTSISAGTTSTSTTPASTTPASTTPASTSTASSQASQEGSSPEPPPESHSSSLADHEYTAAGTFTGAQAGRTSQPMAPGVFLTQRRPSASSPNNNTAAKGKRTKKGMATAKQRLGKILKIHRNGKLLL
Sequence of UniProt P35269 (whole entry, looked up): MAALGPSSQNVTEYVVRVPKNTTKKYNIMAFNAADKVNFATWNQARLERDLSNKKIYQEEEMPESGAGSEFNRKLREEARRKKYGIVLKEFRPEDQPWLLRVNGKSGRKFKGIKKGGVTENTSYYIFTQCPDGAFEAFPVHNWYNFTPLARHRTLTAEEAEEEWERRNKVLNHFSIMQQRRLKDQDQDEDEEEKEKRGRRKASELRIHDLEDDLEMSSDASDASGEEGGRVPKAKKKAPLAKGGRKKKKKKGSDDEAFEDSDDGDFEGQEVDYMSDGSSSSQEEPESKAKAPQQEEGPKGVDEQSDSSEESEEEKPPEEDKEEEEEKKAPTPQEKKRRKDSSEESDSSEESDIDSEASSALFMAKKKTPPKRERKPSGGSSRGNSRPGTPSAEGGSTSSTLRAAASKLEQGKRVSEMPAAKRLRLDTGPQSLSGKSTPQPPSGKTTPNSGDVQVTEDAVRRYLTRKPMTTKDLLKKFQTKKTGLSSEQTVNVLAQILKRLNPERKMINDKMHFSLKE
Sequence of UniProt O49687 (whole entry, looked up): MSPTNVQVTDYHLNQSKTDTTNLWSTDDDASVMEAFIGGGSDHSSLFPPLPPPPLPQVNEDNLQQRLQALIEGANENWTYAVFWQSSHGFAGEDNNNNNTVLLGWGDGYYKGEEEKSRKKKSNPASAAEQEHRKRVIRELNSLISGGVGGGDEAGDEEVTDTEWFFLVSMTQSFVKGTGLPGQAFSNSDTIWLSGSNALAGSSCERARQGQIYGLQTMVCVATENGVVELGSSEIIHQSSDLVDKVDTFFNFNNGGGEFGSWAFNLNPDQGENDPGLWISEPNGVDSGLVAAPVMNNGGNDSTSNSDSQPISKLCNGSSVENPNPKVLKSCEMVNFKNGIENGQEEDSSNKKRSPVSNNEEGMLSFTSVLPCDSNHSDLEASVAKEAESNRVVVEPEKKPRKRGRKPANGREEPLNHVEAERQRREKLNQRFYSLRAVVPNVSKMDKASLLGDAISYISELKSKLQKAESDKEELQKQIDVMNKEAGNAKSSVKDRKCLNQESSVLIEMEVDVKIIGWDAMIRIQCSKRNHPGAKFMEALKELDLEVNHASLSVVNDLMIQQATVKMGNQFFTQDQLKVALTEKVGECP
Sequence of UniProt P45973 (whole entry, looked up): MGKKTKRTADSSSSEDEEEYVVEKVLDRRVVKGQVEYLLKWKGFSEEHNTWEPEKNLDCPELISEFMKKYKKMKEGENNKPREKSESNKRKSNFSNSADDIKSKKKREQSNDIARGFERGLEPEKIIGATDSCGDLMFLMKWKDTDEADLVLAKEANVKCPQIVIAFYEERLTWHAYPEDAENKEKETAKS
Sequence of UniProt Q13705 (whole entry, looked up): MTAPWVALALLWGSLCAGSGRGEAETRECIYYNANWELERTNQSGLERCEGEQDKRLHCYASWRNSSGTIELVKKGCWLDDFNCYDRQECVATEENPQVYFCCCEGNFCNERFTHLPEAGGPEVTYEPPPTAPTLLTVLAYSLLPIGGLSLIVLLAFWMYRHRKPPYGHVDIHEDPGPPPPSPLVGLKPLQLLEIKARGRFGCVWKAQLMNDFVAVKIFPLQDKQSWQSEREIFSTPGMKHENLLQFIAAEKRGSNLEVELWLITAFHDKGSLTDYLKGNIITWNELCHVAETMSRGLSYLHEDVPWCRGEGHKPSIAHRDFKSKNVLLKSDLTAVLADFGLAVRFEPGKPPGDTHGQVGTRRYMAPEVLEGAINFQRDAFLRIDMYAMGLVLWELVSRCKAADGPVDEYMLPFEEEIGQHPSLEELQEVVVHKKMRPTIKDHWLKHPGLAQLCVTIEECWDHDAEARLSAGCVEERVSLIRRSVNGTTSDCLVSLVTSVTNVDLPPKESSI
Sequence of UniProt P63104 (whole entry, looked up): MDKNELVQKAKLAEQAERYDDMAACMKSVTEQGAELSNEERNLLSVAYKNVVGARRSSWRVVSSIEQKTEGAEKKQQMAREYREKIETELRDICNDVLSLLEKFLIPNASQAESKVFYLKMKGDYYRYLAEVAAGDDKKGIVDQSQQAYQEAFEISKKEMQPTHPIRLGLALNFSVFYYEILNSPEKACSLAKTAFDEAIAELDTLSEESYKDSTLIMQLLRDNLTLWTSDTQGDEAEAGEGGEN
Sequence of UniProt Q05097 (whole entry, looked up): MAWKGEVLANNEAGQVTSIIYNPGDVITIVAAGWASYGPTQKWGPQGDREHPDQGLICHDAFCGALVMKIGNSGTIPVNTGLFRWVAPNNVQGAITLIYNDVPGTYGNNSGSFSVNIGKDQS
Sequence of UniProt P69687 (whole entry, looked up): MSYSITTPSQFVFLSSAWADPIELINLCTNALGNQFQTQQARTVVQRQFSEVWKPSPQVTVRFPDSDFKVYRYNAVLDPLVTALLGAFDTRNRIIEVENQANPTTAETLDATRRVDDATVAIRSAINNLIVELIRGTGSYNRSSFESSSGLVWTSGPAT
Sequence of UniProt Q13451 (whole entry, looked up): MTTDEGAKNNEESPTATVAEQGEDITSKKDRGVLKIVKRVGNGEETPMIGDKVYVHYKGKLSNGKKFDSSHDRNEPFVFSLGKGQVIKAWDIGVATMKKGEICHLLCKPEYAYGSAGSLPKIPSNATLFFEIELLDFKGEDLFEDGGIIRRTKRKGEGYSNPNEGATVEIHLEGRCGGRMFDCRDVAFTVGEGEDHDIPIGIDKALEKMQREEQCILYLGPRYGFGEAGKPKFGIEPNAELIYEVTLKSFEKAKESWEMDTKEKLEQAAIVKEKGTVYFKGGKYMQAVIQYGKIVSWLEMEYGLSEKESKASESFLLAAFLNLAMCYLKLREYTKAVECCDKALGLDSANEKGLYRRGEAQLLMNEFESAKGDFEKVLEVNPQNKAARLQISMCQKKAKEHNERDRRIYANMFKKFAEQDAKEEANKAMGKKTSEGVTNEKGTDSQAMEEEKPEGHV
Sequence of UniProt Q9NQG5 (whole entry, looked up): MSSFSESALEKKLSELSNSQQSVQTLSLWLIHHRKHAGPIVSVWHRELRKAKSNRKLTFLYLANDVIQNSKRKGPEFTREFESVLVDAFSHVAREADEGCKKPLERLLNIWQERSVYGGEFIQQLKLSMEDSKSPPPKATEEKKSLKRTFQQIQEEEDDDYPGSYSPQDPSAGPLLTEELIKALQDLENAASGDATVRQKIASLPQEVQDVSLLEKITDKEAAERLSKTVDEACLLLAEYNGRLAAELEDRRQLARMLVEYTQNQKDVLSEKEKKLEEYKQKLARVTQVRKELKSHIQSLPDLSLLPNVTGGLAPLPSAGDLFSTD

Structure (SMILES) | target | test | setting | Kd [µM]
CSCC[C@H](NC(=O)[C@H](CCCNC(=N)N)NC(=O)[C@H](CO)NC(=O)[C@@H](NC(=O)[C@H](CC(=O)O)NC(=O)[C@H](CC(=O)O)NC(=O)CCCCCNC(=O)c1ccc2c(c1)C(=O)OC21c2ccc(O)cc2Oc2cc(O)ccc21)[C@@H](C)O)C(=O)N[C@@H](CCC(=O)O)C(=O)N[C@@H](CCCCN)C(=O)N[C@H](C(=O)N[C@@H](CC(=O)O)C(=O)O)C(C)C | FKBP5 (Homo sapiens, UniProt Q13451) | binding, FP | pH 7.4 | > 25
C[C@@H](O)[C@H](NC(=O)[C@@H]1CCCN1C(=O)[C@H](CO)NC(=O)[C@H](Cc1ccc(O)cc1)NC(=O)[C@H](COP(=O)(O)O)NC(=O)[C@@H]1CCCN1C(=O)[C@H](COP(=O)(O)O)NC(=O)[C@@H](NC(=O)[C@@H]1CCCN1C(=O)[C@H](CO)NC(=O)[C@H](Cc1ccc(O)cc1)NC(=O)[C@H](CO)NC(=O)[C@@H]1CCCN1C(=O)[C@@H](N)CO)[C@@H](C)O)C(=O)N[C@@H](COP(=O)(O)O)C(=O)N1CCC[C@H]1C(=O)N[C@@H](COP(=O)(O)O)C(=O)N[C@@H](Cc1ccc(O)cc1)C(=O)N[C@@H](CO)C(=O)O | Regulation of nuclear pre-mRNA domain-containing protein 1B, CID domain (RPRD1B, Homo sapiens, UniProt Q9NQG5) | isothermal titration calorimetry | pH 7.5, 25 °C | > 1000
CC[C@H](C)[C@H](NC(=O)[C@H](C)NC(=O)[C@H](Cc1c[nH]c2ccccc12)NC(=O)[C@H](CCC(=O)O)NC(=O)[C@H](CO)NC(=S)Nc1ccc2c(c1)C(=O)OC21c2ccc(O)cc2Oc2cc(O)ccc21)C(=O)N[C@H](C(=O)N[C@H](C(=O)N1CCC[C@H]1C(=O)N[C@@H](Cc1ccccc1)C(=O)N[C@@H](CC(C)C)C(=O)N[C@H](C(=O)N[C@@H](CC(N)=O)C(=O)N[C@@H](CC(C)C)C(=O)O)[C@@H](C)O)[C@@H](C)CC)C(C)C | Rgg transcriptional regulator (Streptococcus pneumoniae, UniProt A0A0E7KI02) | binder, fluorescence polarization | 20 min, pH 7.4, 20 °C, fluorescein-labelled peptide | 9.7 ± 0.6
CCN(CCCC[C@H](NC(=O)[C@H](Cc1c[nH]cn1)NC(=O)[C@H](C)NC(=O)[C@H](Cc1ccc(CN)cc1)NC(=O)c1cccnc1)C(=O)N[C@@H](CO)C(N)=O)C(C)C | Chromobox protein homolog 5, chromodomain (Homo sapiens, UniProt P45973) | isothermal titration calorimetry | 25 °C | 4.95
CC[C@H](C)[C@@H]1NC(=O)[C@@H]2CCCN2C(=O)[C@H](Cc2c[nH]c3ccccc23)NC(=O)[C@H](CO)NC(=O)[C@H](Cc2c[nH]c3ccccc23)NC(=O)[C@H](CC(N)=O)NC(=O)[C@H](CCCCN)NC(=O)[C@H](CCSC)NC(=O)[C@@H]2CSCCC(=O)N3CN(CN(C3)C(=O)CCSC[C@H](NC(=O)[C@H](C)N)C(=O)N3CCC[C@H]3C(=O)N[C@@H](Cc3ccccc3)C(=O)NCC(=O)N2)C(=O)CCSC[C@@H](C(=O)N[C@H](C(=O)N[C@@H](CC(N)=O)C(=O)N[C@@H](CCCCN)C(=O)N(C)CC(=O)N(C)CC(=O)N(C)CC(=O)N(C)CC(=O)N(C)CC(=O)N(C)CC(=O)N[C@@H](CCCCNC(=O)c2ccc(C(=O)O)c(-c3c4ccc(=O)cc-4oc4cc(O)ccc34)c2)C(N)=O)[C@@H](C)O)NC(=O)[C@H](Cc2c[nH]c3ccccc23)NC1=O | Nectin-4, extracellular domain (Rattus norvegicus, UniProt D3ZET1) | binding, fluorescence polarization | – | 0.0918
CC(C)C[C@H](NC(=O)[C@H](Cc1c[nH]cn1)NC(=O)[C@H](CCC(N)=O)NC(=O)[C@@H]1CCCN1C(=O)[C@H](CC(N)=O)NC(=O)CNC(=O)[C@H](CCC(N)=O)NC(=O)[C@H](CCCC[N+](C)(C)C)NC(=O)[C@H](CCCNC(=N)N)NC(=O)[C@H](CCCNC(=N)N)NC(=O)[C@@H](N)CO)C(=O)N[C@@H](CO)C(=O)O | Lysine-specific demethylase PHF2, PHD and JmjC domains (Homo sapiens, UniProt O75151) | – | pH 8, 25 °C | > 7
COc1cc(OC)c2c(=O)c(OCCCCn3cnc4cc(F)ccc4c3=O)c(-c3cc(OC)c(OC)c(OC)c3)oc2c1 | CP, capsid (Tobacco mosaic virus, UniProt P69687) | binding, MST | – | 0.012
CC[C@H](C)[C@H](NC(=O)[C@H](Cc1c[nH]cn1)NC(=O)[C@H](CCCCNC(=O)[C@@H](NC(=O)[C@H](CCCCN)NC(=O)CSC[C@H](NC(=O)[C@H](Cc1ccccc1)NC(=O)[C@H](CCCCNC(=O)[C@H](CC(C)C)NC(=O)[C@@H]1CCCN1C(=O)[C@H](CCCCN)NC(=O)c1ccc(O[C@@H]2O[C@H](CO)[C@H](O)[C@H](O)[C@H]2O)cc1)NC(=O)[C@H](CC(C)C)NC(=O)[C@@H]1CCCN1C(=O)[C@H](CCCCN)NC(=O)C[C@@H]1O[C@@H](C)[C@@H](O)[C@@H](O)[C@@H]1O)C(N)=O)[C@@H](C)CC)NC(=O)[C@@H](NC(=O)[C@H](CCCCN)NC(=O)CSC[C@H](NC(=O)[C@H](Cc1ccccc1)NC(=O)[C@H](CCCCNC(=O)[C@H](CC(C)C)NC(=O)[C@@H]1CCCN1C(=O)[C@H](CCCCN)NC(=O)c1ccc(O[C@@H]2O[C@H](CO)[C@H](O)[C@H](O)[C@H]2O)cc1)NC(=O)[C@H](CC(C)C)NC(=O)[C@@H]1CCCN1C(=O)[C@H](CCCCN)NC(=O)C[C@@H]1O[C@@H](C)[C@@H](O)[C@@H](O)[C@@H]1O)C(N)=O)[C@@H](C)CC)C(N)=O | lecA (Pseudomonas aeruginosa, UniProt Q05097) | binding, ITC | pH 7.5 | 0.075
C#CC[C@H](NC(=O)CNC(=O)[C@H](CO)NC(=O)[C@H](CCCCN)NC(=O)[C@H](C)N(C)C(=O)[C@H](C)NC(=O)[C@@H](NC(=O)[C@@H](NC(=O)[C@H](CCCNC(=N)N)NC(=O)[C@H](Cc1c[nH]cn1)NC(=O)[C@@H]1CCCN1C(=O)[C@H](Cc1c[nH]c2ccccc12)NC(=O)[C@@H](N)CCSC)C(C)C)[C@@H](C)O)C(=O)O | Microtubule-associated protein 1 light chain 3 beta (Homo sapiens, UniProt Q9GZQ8) | fluorescence polarization | – | 0.418 ± 0.154
CC[C@H](C)[C@@H]1NC(=O)[C@H](CCCNC(=N)N)NC(=O)[C@@H]2CCCN2C(=O)[C@H](C(C)C)NC(=O)[C@H](CO)NC(=O)[C@H]([C@@H](C)O)NC(=O)CNC(=O)[C@H](CC(=O)O)NC(=O)[C@@H](NC(=O)[C@@H](N)C(C)C)CSSC[C@@H](C(=O)N[C@H](C(=O)O)C(C)C)NC1=O | Activin receptor type-2B, extracellular domain (ACVR2B, Homo sapiens, UniProt Q13705) | binding, surface plasmon resonance | 22 °C, 1% DMSO | > 100
CC[C@H](C)[C@@H]1NC(=O)[C@@H]2CCCN2C(=O)[C@@H](NC(=O)[C@H](C)NC(=O)[C@H](CCSC)NC(C)=O)CSCc2cc3cc(c2)CSC[C@@H](C(=O)N[C@@H](Cc2ccc(O)cc2)C(=O)NCC(=O)N[C@@H](CO)C(=O)NCC(=O)N[C@@H](CO)C(=O)NCC(=O)N[C@@H](CO)C(=O)N[C@@H](CC(=O)O)C(=O)N[C@@H](Cc2ccc(O)cc2)C(=O)N[C@@H](CCCCN)C(=O)N[C@@H](CC(=O)O)C(=O)N[C@@H](CC(=O)O)C(=O)N[C@@H](CC(=O)O)C(=O)N[C@@H](CC(=O)O)C(=O)N[C@@H](CCCCN)C(N)=O)NC(=O)[C@H](Cc2ccc(O)cc2)NC(=O)[C@H](CCCNC(=N)N)NC(=O)[C@H](CC(C)C)NC(=O)[C@H]([C@@H](C)O)NC(=O)[C@H](CC(N)=O)NC(=O)[C@H]([C@@H](C)O)NC(=O)[C@H](CSC3)NC(=O)CNC1=O | FGFR4 (Homo sapiens, UniProt P22455) | binding, BLI | – | > 10
COC(=O)[C@H](CSC/C=C(\C)CC/C=C(\C)CC/C=C(\C)CCC=C(C)C)NC(=O)[C@H](COP(=O)(O)O)NC(=O)[C@H](CCCCN)NC(=O)[C@H](CCCCN)NC(=O)[C@H](CCCCN)NC(=O)[C@@H]1CCCN1C(=O)[C@H](CCCCN)NC(=O)[C@H](CCCCN)NC(=O)[C@H](CCCCN)NC(=O)[C@@H](N)CCC(=O)O | YWHAZ (Homo sapiens, UniProt P63104) | binding, fluorescence polarization | pH 7.5, 25 °C | 1.76
CC(=O)NCC(=O)N[C@@H](CO)C(=O)NCC(=O)N[C@@H](COP(=O)(O)O)C(=O)N1CCC[C@H]1C(=O)N[C@@H](CO)C(=O)N[C@@H](C)C(=O)N[C@@H](C)C(=O)N[C@@H](C)C(=O)N[C@@H](CO)C(=O)N[C@@H](CO)C(=O)N[C@@H](CO)C(=O)N[C@@H](Cc1c[nH]c2ccccc12)C(=O)N[C@@H](Cc1c[nH]cn1)C(=O)N[C@@]1(C)CCCC=CCCC[C@@](C)(C(=O)N[C@@H](CCC(=O)O)C(=O)N[C@@H](CCC(=O)O)C(=O)NCC(=O)N[C@@H](CCC(N)=O)C(=O)N[C@@H](CC(C)C)C(=O)N[C@@H](Cc2ccc(O)cc2)C(=O)NCC(N)=O)NC(=O)[C@H]([C@@H](C)O)NC(=O)[C@H](Cc2ccccc2)NC(=O)[C@H](CC(C)C)NC1=O | General transcription factor IIF subunit 1, C-terminal domain (Homo sapiens, UniProt P35269) | binding | pH 7.4, 298 K | 105 ± 2
CC(C)C[C@H](NC(=O)[C@H](CCCNC(=N)N)NC(=O)[C@H](CCC(=O)O)NC(=O)[C@H](CCCCN)NC(=O)[C@H](CCCNC(=N)N)NC(=O)[C@H](CCCCN)NC(=O)[C@]1(C)CCCC=CCCC[C@](C)(NC(=O)[C@H](CC(C)C)NC(=O)[C@H](CO)NC(=O)[C@]2(C)CCCC=CCCC[C@](C)(NC(=O)[C@@H]3CCCN3C(=O)[C@@H](NC(=O)[C@H](CO)NC(=O)c3ccc4c(c3)C(=O)OC43c4ccc(N(C)C)cc4Oc4cc(N(C)C)ccc43)C(C)C)C(=O)N[C@@H](C)C(=O)N[C@@H](CCCNC(=N)N)C(=O)N[C@@H](CCCCN)C(=O)N2)C(=O)N[C@@H](CCCNC(=N)N)C(=O)N[C@@H](Cc2ccccc2)C(=O)N[C@@H](CC(C)C)C(=O)N1)C(=O)O | Transcription factor MYC4 (MYC4, Arabidopsis thaliana, UniProt O49687) | binding, fluorescence anisotropy | pH 8.0, MYC4 residues 55-253 | 0.88 ± 0.2

Repeated from above:
Structure (SMILES) | target | test | setting | Kd [µM]
CCN(CCCC[C@H](NC(=O)[C@H](Cc1c[nH]cn1)NC(=O)[C@H](C)NC(=O)[C@H](Cc1ccc(CN)cc1)NC(=O)c1cccnc1)C(=O)N[C@@H](CO)C(N)=O)C(C)C | Chromobox protein homolog 5, chromodomain (Homo sapiens, UniProt P45973) | isothermal titration calorimetry | 25 °C | 4.95
CC[C@H](C)[C@@H]1NC(=O)[C@H](CCCNC(=N)N)NC(=O)[C@@H]2CCCN2C(=O)[C@H](C(C)C)NC(=O)[C@H](CO)NC(=O)[C@H]([C@@H](C)O)NC(=O)CNC(=O)[C@H](CC(=O)O)NC(=O)[C@@H](NC(=O)[C@@H](N)C(C)C)CSSC[C@@H](C(=O)N[C@H](C(=O)O)C(C)C)NC1=O | Activin receptor type-2B, extracellular domain (ACVR2B, Homo sapiens, UniProt Q13705) | binding, surface plasmon resonance | 22 °C, 1% DMSO | > 100
